Results of several laboratories.
Compare with care: the assays were run in different laboratories. Numbers after ± are the reported error.
SIRT3: NAD-dependent protein deacetylase sirtuin-3, mitochondrial (SIRT3, Homo sapiens, UniProt Q9NTG7)
Sequence of UniProt Q9NTG7 (whole entry, looked up): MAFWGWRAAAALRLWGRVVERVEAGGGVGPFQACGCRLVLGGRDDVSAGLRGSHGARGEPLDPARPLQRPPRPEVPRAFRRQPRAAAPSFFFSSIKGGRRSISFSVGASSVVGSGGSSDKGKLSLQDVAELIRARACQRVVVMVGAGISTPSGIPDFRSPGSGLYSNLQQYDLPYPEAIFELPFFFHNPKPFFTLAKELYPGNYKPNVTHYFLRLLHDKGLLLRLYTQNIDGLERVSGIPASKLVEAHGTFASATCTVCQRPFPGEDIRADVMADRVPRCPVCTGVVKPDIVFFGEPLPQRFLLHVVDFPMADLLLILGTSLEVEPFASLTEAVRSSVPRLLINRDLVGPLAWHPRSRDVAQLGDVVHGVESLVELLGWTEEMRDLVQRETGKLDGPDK
HTR1E: 5-hydroxytryptamine receptor 1E (HTR1E, Homo sapiens, UniProt P28566)
Sequence of UniProt P28566 (whole entry, looked up): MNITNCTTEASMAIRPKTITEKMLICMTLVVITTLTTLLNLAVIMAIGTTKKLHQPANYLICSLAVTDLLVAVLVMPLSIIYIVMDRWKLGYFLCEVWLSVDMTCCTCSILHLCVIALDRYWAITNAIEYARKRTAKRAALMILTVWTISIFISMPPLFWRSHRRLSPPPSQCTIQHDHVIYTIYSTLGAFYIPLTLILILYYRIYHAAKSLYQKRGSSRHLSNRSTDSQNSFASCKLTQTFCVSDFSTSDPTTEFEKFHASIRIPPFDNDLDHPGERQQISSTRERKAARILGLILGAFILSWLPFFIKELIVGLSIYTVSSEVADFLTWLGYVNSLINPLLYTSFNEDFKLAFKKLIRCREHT
Sequence of UniProt Q12879 (whole entry, looked up): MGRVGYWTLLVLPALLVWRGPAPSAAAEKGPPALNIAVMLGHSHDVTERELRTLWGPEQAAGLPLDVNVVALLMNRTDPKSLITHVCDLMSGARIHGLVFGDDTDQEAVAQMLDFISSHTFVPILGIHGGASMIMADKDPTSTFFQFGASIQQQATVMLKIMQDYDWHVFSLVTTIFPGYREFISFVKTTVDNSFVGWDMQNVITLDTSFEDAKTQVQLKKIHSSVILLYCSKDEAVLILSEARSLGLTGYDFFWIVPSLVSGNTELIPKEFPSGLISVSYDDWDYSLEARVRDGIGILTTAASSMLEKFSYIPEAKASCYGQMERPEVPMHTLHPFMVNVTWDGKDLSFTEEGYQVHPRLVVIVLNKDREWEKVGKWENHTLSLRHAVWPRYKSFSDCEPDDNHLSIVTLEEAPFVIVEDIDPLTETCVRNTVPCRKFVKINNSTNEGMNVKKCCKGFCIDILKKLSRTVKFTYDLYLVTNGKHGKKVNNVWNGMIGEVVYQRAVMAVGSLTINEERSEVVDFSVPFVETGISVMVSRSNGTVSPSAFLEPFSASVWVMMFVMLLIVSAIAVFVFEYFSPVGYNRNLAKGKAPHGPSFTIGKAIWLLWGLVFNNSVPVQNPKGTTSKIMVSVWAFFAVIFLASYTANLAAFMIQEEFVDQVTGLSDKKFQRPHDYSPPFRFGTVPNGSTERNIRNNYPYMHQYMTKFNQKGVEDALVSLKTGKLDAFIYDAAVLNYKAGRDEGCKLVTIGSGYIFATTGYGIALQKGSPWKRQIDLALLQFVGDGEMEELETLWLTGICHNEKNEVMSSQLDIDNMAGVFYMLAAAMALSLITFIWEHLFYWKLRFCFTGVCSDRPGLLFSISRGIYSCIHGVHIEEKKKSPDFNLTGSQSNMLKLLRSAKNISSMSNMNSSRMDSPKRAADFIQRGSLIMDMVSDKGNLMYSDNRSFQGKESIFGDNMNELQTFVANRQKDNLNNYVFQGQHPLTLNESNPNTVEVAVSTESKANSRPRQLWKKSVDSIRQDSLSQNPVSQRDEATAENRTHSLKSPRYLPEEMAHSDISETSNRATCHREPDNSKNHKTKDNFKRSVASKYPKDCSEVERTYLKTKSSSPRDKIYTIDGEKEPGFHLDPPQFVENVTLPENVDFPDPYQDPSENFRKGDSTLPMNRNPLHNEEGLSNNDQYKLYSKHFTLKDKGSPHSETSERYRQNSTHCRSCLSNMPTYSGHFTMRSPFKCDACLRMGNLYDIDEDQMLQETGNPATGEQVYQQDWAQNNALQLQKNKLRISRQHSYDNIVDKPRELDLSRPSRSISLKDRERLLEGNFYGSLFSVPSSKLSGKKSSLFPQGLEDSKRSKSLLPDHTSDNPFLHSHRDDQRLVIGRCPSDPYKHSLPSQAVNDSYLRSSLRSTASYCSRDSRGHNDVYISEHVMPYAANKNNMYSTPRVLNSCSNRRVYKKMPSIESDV
Sequence of UniProt O15151 (whole entry, looked up): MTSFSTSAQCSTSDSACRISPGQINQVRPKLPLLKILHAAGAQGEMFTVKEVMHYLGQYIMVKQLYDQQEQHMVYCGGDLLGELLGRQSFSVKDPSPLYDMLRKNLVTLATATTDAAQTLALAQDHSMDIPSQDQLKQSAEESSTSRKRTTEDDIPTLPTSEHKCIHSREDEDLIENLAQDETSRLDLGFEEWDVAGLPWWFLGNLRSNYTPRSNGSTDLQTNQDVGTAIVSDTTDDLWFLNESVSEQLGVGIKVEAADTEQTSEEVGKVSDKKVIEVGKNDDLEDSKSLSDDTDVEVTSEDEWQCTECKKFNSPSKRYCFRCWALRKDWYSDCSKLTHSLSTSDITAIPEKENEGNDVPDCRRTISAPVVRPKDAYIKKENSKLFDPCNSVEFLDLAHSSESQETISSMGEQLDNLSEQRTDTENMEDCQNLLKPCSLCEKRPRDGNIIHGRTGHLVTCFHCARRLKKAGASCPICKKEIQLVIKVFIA
Sequence of UniProt Q16881 (whole entry, looked up): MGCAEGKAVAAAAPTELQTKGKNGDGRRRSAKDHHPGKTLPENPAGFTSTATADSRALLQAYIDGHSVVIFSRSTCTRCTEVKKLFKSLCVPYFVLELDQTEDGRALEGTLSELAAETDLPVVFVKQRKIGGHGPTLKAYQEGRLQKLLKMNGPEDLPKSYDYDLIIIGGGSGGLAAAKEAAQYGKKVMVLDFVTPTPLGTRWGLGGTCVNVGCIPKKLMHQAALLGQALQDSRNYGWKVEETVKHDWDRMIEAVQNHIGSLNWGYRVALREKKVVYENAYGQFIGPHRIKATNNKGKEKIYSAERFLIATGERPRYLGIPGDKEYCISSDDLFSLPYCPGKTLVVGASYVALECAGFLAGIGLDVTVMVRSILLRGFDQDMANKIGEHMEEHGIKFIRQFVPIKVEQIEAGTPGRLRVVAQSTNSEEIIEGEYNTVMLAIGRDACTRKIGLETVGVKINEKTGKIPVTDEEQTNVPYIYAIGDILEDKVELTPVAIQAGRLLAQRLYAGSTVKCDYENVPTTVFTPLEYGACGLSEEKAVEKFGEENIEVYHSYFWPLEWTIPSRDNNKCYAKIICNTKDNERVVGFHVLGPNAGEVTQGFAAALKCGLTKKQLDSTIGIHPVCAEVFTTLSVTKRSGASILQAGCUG
Sequence of UniProt Q01959 (whole entry, looked up): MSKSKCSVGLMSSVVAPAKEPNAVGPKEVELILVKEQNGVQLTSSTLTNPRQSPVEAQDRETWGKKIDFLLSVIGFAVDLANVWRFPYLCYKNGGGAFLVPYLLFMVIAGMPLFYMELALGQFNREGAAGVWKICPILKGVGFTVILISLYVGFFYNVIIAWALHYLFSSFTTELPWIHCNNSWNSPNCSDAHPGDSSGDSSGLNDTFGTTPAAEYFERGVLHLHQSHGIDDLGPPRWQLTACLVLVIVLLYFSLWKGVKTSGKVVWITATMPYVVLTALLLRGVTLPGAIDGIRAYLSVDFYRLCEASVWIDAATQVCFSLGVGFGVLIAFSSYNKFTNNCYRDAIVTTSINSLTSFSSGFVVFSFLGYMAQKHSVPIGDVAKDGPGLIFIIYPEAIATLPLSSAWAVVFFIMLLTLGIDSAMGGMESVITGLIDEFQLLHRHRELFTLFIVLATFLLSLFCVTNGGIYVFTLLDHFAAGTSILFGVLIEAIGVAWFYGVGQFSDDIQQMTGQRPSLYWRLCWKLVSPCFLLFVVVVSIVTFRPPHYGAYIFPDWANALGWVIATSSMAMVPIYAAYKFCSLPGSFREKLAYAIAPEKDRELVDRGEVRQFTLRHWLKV
Sequence of UniProt Q9UPE1 (whole entry, looked up): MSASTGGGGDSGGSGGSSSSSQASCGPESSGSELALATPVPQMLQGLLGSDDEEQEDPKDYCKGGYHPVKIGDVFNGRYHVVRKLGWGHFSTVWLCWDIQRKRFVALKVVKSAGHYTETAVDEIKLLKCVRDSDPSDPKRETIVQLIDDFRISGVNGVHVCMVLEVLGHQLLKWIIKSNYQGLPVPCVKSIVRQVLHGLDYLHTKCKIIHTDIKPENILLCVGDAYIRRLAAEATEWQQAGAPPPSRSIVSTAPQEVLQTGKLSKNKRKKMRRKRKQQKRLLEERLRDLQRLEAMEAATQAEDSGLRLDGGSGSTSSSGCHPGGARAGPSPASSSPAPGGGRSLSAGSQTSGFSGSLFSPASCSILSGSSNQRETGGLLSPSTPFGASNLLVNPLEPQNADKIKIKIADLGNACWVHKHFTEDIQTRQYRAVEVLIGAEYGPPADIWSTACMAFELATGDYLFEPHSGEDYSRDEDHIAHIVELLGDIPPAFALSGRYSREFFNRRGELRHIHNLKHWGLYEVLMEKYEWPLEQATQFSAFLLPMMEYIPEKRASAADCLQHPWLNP
Sequence of UniProt P51686 (whole entry, looked up): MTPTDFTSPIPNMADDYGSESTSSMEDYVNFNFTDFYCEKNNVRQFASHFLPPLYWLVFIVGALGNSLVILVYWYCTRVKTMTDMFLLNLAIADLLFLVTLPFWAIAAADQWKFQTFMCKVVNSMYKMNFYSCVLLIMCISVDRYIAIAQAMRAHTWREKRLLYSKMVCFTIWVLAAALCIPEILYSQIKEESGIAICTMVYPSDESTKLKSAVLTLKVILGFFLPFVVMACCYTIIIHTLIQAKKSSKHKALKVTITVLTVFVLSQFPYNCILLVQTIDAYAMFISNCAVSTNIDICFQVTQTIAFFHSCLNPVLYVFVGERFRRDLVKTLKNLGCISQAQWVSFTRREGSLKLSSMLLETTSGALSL

Structure (SMILES)	target	assay	test system	setting	inhibition
CCCCCCCCCCCCNC(=S)NCCCC[C@H](NC(=O)OCc1ccccc1)C(=O)N[C@@H](Cc1c[nH]c2ccccc12)C(=O)NC(C)C	SIRT3	enzyme activity, inhibitor	–	10 µM	< 5%
C=C(NC(=O)c1csc(-c2ccc(NC(=O)CCCCCBr)cc2)n1)C(=O)NC(=C)C(=O)OC	TXNRD1 (Homo sapiens, UniProt Q16881)	enzyme activity	–	50 µM, 1 h, pH 8.0, 37 °C	no inhibition
C=CCNC(=O)[C@H](CCc1ccccc1)NC(=O)[C@H](CC(=O)NCC(C)(C)C)NC(=O)CCc1ccccc1	trypsin	enzyme activity, inhibitor	–	100 µM	1%
CN(Cc1ccc(/C=C/C(=O)NO)cc1)CC12CC3CC(CC(C3)C1)C2	human M4 receptor	antagonist radioligand binding	–	0.05 µM	0%
O=C(Nc1ccccc1)Nc1ccc(C(F)(F)F)cc1	SRPK3 (Homo sapiens, UniProt Q9UPE1)	binding, KINOMEscan competitive binding	–	concentration not given	61%
CC(=O)N[C@H](C(=O)N[C@@H](CO)C(=O)N[C@@H](Cc1ccccc1)C(=O)N[C@H]1CCCCNC(=N)NCCCCNC(=N)NCCCC[C@@H](C(=O)N2CCC[C@H]2C(N)=O)NC(=O)[C@H](CC(C)C)NC(=O)[C@H](CC(C)C)NC(=O)[C@H](C)NC(=O)[C@H](Cc2c[nH]c3ccccc23)NC(=O)[C@H](Cc2ccc(O)cc2)NC(=O)[C@H](CCC(=O)O)NC1=O)[C@@H](C)O	Protein Mdm4 (MDM4, Homo sapiens, UniProt O15151)	protein-protein interaction, inhibitor, TR-FRET	–	0.1 µM	≥ 90%
Cc1ccc(CN(C)C(=O)C(CCc2ccccc2)NC(=O)C(NC(=O)c2ccc(OCc3ccccc3)cc2)C(C)O)cc1 (stereo not drawn)	chymotrypsin	enzyme activity, inhibitor	–	100 µM	3%
Cc1ccnc(OC[C@H]2CN(CCN3CCc4ccccc43)CCO2)c1	HTR1E	radioligand binding	–	concentration not given, added: [3H]5-HT	-13.1%
O=C1CO[C@H](CNC(=O)C2(c3ccc(Cl)cc3)CC2)CN1C1Cc2ccccc2C1	CCR9 (Homo sapiens, UniProt P51686)	β-arrestin recruitment, antagonist	–	1 µM	2%
CCCCCCCCCCCCNC(=S)NCCCC[C@H](NC(=O)OCc1ccccc1)C(=O)N[C@@H](Cc1ccc(O)c([N+](=O)[O-])c1)C(=O)N[C@@H](CCCNC(=N)N)C(N)=O	SIRT3	enzyme activity, inhibitor	–	1 µM	28%
O=C1c2sc(-c3ccc(N4CCC(F)C4)nc3F)nc2CCN1c1cccnc1 (stereo not drawn)	SLC6A3 (Homo sapiens, UniProt Q01959)	ligand displacement, radioligand	–	1 µM	3%
CC(=O)C12NC(C)(C)CC1(C)C(=O)C1=C2c2c(c3c4n2C(C)(C)CC2=C4C4(CC(C)(C)NC(C)(C4)C2=O)CC3(C)C)C(=O)C(C)(C)N1 (single isomer, unassigned; (-))	Glutamate NMDA receptor; GRIN1/GRIN2A (Homo sapiens, UniProt Q05586+Q12879)	ion current, inhibitor, patch clamp	HEK-293T	10 µM	21.4%
CC1CCN(C(=O)c2cccc(NC(=O)Nc3cc(Cl)cc(Cl)c3)c2)CC1	Penicillin-binding protein 4 (Staphylococcus aureus, UniProt P72355)	Bocillin-FL binding, inhibitor, fluorescence polarization	–	50 µM, added: PBP4 1 µM	no inhibition
COc1ccc(C(=O)Nc2c(-c3cccs3)nc3ccccn23)cc1	HTR1E	ligand displacement, radioligand	–	10 µM	< 50%
CC(C)(C)CNC(=O)C[C@H](NC(=O)CCc1ccccc1)C(=O)N[C@@H](Cc1cccnc1)C(=O)NCc1ccccc1Cl	Prothrombin (F2, Homo sapiens, UniProt P00734)	enzyme activity, inhibitor	–	100 µM	12%
COc1ccc(C2CC(=O)c3c(O)c(Br)c(O)c(Br)c3O2)cc1O (stereo not drawn)	AMY2 (Sus scrofa, UniProt P00690)	enzyme activity, inhibitor	–	50 µM, added: CNP-G3 substrate	40.5 ± 0.66%
C[Si]1(C[C@H](CN)CC(=O)O)CCCC1	SK potassium channel, rat	binding, radioligand binding	–	70 µM, added: iodinated apamin	2%
CN(C)C/C=C/C(=O)Nc1ccc2nc(NCCCCCN(C)C)nc(NCCCCCCN(C)C)c2c1	EHMT2 (Homo sapiens, UniProt Q96KQ7)	enzyme activity, inhibitor, radiometric	–	50 µM	88%

Some of these lines once more:
Structure (SMILES)	target	assay	test system	setting	inhibition
CN(Cc1ccc(/C=C/C(=O)NO)cc1)CC12CC3CC(CC(C3)C1)C2	human M4 receptor	antagonist radioligand binding	–	0.05 µM	0%
